Published values of several laboratories.
A part holds a random share of what one study measured.

Set 1
Target: PABPC1L2, full length, GST fusion (mouse, UniProt A0ABA7IW68)
Method: RNAcompete
Molecule type: RNA
Medium: in vitro
Tested at: 20 nM
Notes: 7-mer, probes averaged, single round
Reference: mean of 7-mers
Reading: higher = stronger binding
Target sequence (chain): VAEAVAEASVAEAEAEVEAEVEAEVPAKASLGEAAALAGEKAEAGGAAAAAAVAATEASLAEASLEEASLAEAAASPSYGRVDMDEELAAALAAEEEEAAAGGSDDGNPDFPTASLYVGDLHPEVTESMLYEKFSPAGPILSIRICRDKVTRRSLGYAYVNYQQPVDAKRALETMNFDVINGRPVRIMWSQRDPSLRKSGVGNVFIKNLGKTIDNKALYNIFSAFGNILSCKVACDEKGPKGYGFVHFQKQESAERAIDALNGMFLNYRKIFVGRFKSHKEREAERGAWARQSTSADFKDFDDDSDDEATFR
The 7-mer Z-score of `GAUGGUC` is reported as -0.0283.
The 7-mer Z-score of `UGGAAGA` is reported as 0.229.
`CAAUUUU` has a 7-mer Z-score of -0.108.
`CACACGG` has a 7-mer Z-score of 0.0732.
For `GUGCACG`, the 7-mer Z-score was -0.155.
The 7-mer Z-score of `ACUUUGC` is reported as -0.421.
The 7-mer Z-score of `GCCGAUU` is reported as -0.257.
The 7-mer Z-score of `GUAUUCC` is reported as -0.331.
`ACAGUGG` gave a 7-mer Z-score of 0.227.
For `ACUUUGU`, the 7-mer Z-score was -0.385.
`UUGAGCU` gave a 7-mer Z-score of -0.253.
The 7-mer Z-score of `CCUGCGC` is reported as -0.336.
With `ACGGAUC` the 7-mer Z-score was 0.0986.
The 7-mer Z-score of `CAUUACG` is reported as -0.0826.
For `ACAAUCG`, the 7-mer Z-score was 0.14.
With `UACAAAU` the 7-mer Z-score was 1.25.
`GCAGUCG` has a 7-mer Z-score of -0.157.
The 7-mer Z-score of `CGCGACC` is reported as -0.197.
`ACGUGUU` gave a 7-mer Z-score of -0.306.
The 7-mer Z-score of `CUCGUGG` is reported as -0.208.
For `AAUAAUG`, the 7-mer Z-score was 0.492.
With `UGCAAUU` the 7-mer Z-score was -0.191.
The 7-mer Z-score of `AAUCGAA` is reported as 0.593.
`GCGCACA` gave a 7-mer Z-score of -0.0192.
For `UAACGCG`, the 7-mer Z-score was -0.18.

Set 2
Target: Interferon regulatory factor 5, full length, phosphomimetic (IRF5, Homo sapiens, UniProt Q13568-2, residues 1-514, K96S/S451D/S453D/S456D/S462D)
Method: protein-binding microarray
Molecule type: double-stranded DNA, one strand shown
Medium: in vitro
Tested at: 250 nM
Notes: 60-bp whole probe
Together with: salmon DNA 0.4 mg/ml
Reference: random background probes
Reading: higher = stronger binding
All sequences stand within: GCCTAGCAC … GTCTTGATTCGCTTGACGCTGCTG
For `TTAGGTTTCGGGTTCCGGTTAGTGCTA`, the log fluorescence was 8.8 z-score.
`CAGCACATGCATCTCCCACAGTGCTAG` has a log fluorescence of -0.457 z-score.
With `GACGAACTGAGACAGGAGACGTGCTAG` the log fluorescence was -0.356 z-score.
The log fluorescence of `GACGGTTACCTTTCCCTGACGTGCTAG` is reported as 0.426 z-score.
The log fluorescence of `TACGGTCTCCTTATCCTGACGTGCTAG` is reported as 0.105 z-score.
The log fluorescence of `GACGAACTGGGGTATCGAGGCGTGCTA` is reported as -0.148 z-score.
For `CACGGACTGCTTATCCTGACGTGCTAG`, the log fluorescence was -0.62 z-score.
The log fluorescence of `TCAGTTACCCCTCATCAAACTGTGCTA` is reported as -0.0165 z-score.
The log fluorescence of `GAAGGTTTCCTTTCCCTGACGTGCTAG` is reported as 1.55 z-score.
The log fluorescence of `TCAACTTTGGCATGTCTTACTGTGCTA` is reported as -0.0628 z-score.
With `TTAGGTTTCGGATCCGGTTAGTGCTAG` the log fluorescence was 6.72 z-score.
`AAGTTTCTCCTTTCCAAATAGTGCTAG` gave a log fluorescence of 3.99 z-score.
`TCATATATATAATATATAACTGTGCTA` gave a log fluorescence of 0.881 z-score.
The log fluorescence of `GACGGACTGGTCTTTCGGGACGTGCTA` is reported as 1.65 z-score.
`TTAGAAATGGGGACTGGATTAGTGCTA` gave a log fluorescence of 0.0298 z-score.
`TTAGGTATCCGTCTCCTTTAGTGCTAG` gave a log fluorescence of 0.0594 z-score.
`GACGGTATCGGTTGCGGGACGTGCTAG` gave a log fluorescence of 5.87 z-score.
For `GACGGTATCGGTTTCGGGAAGTGCTAG`, the log fluorescence was 8.84 z-score.
`TTAGAGCTCAGTTTCGATTAGTGCTAG` has a log fluorescence of 9.4 z-score.

Set 3
Target: Histone acetyltransferase KAT6A, winged helix 2, GST fusion (KAT6A, Homo sapiens, UniProt Q92794, residues 85-181)
Method: protein binding microarray
Molecule type: double-stranded DNA, one strand shown
Medium: in vitro
Tested at: not given
Notes: 8-mer, flanks averaged, mean of 2 arrays, mostly near background
Reference: not given
Reading: higher = stronger binding
Target sequence (chain): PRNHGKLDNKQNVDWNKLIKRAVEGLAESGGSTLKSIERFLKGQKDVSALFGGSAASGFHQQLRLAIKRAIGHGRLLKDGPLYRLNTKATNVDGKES
The E-score of `AGGCAGGG` is reported as 0.0202.
For `AAATGCCA`, the E-score was 0.0334.
With `GTTCCGAA` the E-score was 0.159.
`TATGCTGA` has an E-score of 0.0269.
For `AAGTCATA`, the E-score was -0.0423.
`GTTGTTAA` gave an E-score of 0.00281.
`TCACACGA` gave an E-score of -0.0393.
`ATTTTCGC` gave an E-score of 0.0506.
`ATGTAAGG` has an E-score of -0.247.
`AATAGTTC` gave an E-score of 0.00157.
`AGTTTAGG` gave an E-score of 0.00622.
`CTTACCAC` gave an E-score of -0.0528.
With `CGGATCAG` the E-score was 0.114.
For `GGAGCCCC`, the E-score was 0.0215.
`ATTGAGCG` has an E-score of -0.129.
`ATCAGAAA` gave an E-score of 0.00482.
For `CAAAAAAG`, the E-score was 0.107.
`GACCTTCC` gave an E-score of -0.0294.
For `AACCACAA`, the E-score was -0.00198.

Set 4
Target: Phosphate system positive regulatory protein PHO4, full length, GST-tagged (PHO4, Saccharomyces cerevisiae, UniProt P07270, residues 1-312)
Method: competition protein-binding microarray
Molecule type: double-stranded DNA, one strand shown
Medium: in vitro
Tested at: 2 µM
Notes: whole 60-bp probe, lowest competitor level
Together with: Cbf1 competitor, 0.05 µM
Reading: higher = stronger binding
All sequences stand within: … GTCTTGATTCGCTTGACGCTGCTG
Residues (chain): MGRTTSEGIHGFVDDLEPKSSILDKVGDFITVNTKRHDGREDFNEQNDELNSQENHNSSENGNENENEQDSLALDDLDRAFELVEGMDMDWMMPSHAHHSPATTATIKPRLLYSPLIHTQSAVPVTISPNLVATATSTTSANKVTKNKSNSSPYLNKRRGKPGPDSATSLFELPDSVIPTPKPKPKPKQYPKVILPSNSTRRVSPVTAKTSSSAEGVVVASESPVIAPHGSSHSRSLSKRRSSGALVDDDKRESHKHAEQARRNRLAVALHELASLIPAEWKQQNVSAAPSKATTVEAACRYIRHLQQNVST
`GAAGGTGCCTCTTCCCACATGGCCGAGCCCTCGCCG` has a fluorescence intensity of 8140 a.u.
`CGGGGTTAAGTTTGTGCGGTGGGTGGCTTGCAGCAG` has a fluorescence intensity of 4970 a.u.
With `CTATAATGATTCTGTCGCGTGGAACGGTTTTCCATG` the fluorescence intensity was 7750 a.u.
For `TTGGAAAGTGGCGATCTTGTGACGGTCAACGATGAT`, the fluorescence intensity was 3950 a.u.
`ATACGACTCCCAACACACGTTTAATGTTGTACGAAT` has a fluorescence intensity of 11900 a.u.
`CTAACGAAGGTTTTTCACGTGAACTACAAGCCAAGT` gave a fluorescence intensity of 9430 a.u.
`CCTAATGTTAACGGCCACGGGGAATGCGGATCAACT` has a fluorescence intensity of 9970 a.u.
With `CTGAGCAAATTCTGTGACCTGCAATTTTACTTGTTC` the fluorescence intensity was 2970 a.u.
The fluorescence intensity of `AATACACACAACTCAAACGTGTATAAACGACTTTAT` is reported as 10800 a.u.
The fluorescence intensity of `CTTTCCCGATCTTTTCACGTGTCCTTAGCACATTTG` is reported as 13600 a.u.
With `ATGGGGGCATAATCGCACGATGTGCAAGCTGAGTGT` the fluorescence intensity was 13300 a.u.
`CTGAAAAGATTTCGGCACATGGTCTTGGGACCAGAG` gave a fluorescence intensity of 12400 a.u.
`TTCCAGTGTTTCTTATCCGTGATGGTTTAATGGTCA` gave a fluorescence intensity of 4400 a.u.
With `TAGATCCCTGTCCGTCACCTGAGTGTCCGTTTCAGG` the fluorescence intensity was 3040 a.u.
`GATTCCTCATCTCGTCAGGTGATATTTGCATTCTAT` has a fluorescence intensity of 3800 a.u.
With `AAATCGTCAGTAAAGTCAGAGTAATGATTTTTCACT` the fluorescence intensity was 3000 a.u.
With `CGTCCTAGTGATTGCCATGTGGGTGCCATGAGGAAG` the fluorescence intensity was 12000 a.u.
`CATACCCAACCTTGCGCTGTGGGTGAAGATATTTGT` has a fluorescence intensity of 4020 a.u.
`TTATCTGTTTTAATTGGCGTGGGTAAGTGGGGTAGG` gave a fluorescence intensity of 6180 a.u.

Repeated from above (set 2):
The log fluorescence of `GACGGACTGGTCTTTCGGGACGTGCTA` is reported as 1.65 z-score.
With `TTAGGTTTCGGATCCGGTTAGTGCTAG` the log fluorescence was 6.72 z-score.
`TTAGGTATCCGTCTCCTTTAGTGCTAG` gave a log fluorescence of 0.0594 z-score.
For `GACGGTATCGGTTTCGGGAAGTGCTAG`, the log fluorescence was 8.84 z-score.
The log fluorescence of `GACGAACTGGGGTATCGAGGCGTGCTA` is reported as -0.148 z-score.
The log fluorescence of `GAAGGTTTCCTTTCCCTGACGTGCTAG` is reported as 1.55 z-score.
`AAGTTTCTCCTTTCCAAATAGTGCTAG` gave a log fluorescence of 3.99 z-score.
